# Measured values pooled from the literature.
# Numbered parts are unrelated; each lists some results of a single study. Values joined by “and” are separate records of one study, mostly repeats; a detail may differ. Positions count from the first letter of the parent shown.
# Sequence of UniProt Q9P1W9 (whole entry, looked up): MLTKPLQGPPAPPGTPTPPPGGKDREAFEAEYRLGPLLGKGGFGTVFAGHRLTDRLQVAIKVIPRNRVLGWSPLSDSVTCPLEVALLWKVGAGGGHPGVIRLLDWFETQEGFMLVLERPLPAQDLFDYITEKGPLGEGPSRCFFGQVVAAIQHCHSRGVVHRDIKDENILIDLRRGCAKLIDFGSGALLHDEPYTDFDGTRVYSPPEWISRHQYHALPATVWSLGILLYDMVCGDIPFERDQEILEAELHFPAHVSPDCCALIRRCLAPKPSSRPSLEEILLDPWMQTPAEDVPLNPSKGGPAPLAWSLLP
# Sequence of UniProt P07949 (whole entry, unmodified, looked up): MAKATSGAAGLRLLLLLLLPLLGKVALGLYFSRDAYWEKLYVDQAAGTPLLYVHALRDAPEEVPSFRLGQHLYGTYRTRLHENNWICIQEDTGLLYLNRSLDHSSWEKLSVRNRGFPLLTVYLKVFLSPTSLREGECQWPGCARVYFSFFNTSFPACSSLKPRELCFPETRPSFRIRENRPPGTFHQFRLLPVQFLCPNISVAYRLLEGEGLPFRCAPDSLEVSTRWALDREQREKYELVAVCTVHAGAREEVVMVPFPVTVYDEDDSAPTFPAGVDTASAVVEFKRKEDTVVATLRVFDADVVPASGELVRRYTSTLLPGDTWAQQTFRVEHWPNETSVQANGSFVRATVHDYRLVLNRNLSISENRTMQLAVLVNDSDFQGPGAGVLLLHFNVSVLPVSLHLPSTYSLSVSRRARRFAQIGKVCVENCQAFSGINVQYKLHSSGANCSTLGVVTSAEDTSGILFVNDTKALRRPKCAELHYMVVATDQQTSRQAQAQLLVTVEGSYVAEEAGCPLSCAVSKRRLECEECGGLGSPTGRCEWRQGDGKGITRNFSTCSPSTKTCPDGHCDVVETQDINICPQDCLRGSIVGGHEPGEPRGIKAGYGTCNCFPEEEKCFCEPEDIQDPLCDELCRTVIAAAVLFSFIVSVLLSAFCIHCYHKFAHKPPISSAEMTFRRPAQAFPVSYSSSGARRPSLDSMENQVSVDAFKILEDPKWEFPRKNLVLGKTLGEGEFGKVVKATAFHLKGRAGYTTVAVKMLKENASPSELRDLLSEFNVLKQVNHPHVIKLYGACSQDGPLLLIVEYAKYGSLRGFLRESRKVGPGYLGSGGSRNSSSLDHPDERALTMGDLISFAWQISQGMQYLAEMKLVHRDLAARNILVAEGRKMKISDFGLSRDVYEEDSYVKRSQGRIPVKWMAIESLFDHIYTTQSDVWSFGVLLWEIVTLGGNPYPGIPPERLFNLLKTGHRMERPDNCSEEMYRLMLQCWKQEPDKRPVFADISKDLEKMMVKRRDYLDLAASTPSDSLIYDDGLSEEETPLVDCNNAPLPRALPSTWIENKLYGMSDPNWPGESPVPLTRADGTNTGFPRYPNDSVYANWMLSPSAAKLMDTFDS
# Sequence of UniProt P49840 (whole entry, looked up): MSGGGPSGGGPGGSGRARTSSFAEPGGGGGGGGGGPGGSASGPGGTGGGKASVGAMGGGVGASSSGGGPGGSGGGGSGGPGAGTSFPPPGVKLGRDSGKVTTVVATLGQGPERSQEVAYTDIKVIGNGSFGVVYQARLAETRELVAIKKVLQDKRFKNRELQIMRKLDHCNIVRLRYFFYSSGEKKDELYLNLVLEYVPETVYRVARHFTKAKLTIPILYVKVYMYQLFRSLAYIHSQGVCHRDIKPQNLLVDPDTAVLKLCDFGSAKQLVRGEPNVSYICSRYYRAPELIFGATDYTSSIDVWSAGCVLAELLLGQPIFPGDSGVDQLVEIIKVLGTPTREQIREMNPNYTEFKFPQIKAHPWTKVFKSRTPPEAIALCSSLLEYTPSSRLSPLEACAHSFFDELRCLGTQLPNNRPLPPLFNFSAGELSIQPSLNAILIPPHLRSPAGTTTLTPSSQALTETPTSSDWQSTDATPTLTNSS
# Sequence of UniProt Q8IW41 (whole entry, looked up): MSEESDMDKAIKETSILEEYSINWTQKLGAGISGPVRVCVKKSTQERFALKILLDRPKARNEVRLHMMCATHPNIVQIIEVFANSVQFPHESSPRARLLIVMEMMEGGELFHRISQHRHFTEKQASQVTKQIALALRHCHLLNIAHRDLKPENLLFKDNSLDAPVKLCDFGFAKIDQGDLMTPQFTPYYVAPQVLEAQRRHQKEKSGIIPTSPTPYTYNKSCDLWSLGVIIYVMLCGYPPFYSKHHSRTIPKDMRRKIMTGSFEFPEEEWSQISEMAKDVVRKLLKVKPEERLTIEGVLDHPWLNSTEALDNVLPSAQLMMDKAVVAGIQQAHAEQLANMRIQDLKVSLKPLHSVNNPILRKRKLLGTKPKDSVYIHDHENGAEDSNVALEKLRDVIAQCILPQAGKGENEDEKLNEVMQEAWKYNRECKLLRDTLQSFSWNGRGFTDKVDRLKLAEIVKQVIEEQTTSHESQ
# Sequence of UniProt Q04771 (whole entry, looked up): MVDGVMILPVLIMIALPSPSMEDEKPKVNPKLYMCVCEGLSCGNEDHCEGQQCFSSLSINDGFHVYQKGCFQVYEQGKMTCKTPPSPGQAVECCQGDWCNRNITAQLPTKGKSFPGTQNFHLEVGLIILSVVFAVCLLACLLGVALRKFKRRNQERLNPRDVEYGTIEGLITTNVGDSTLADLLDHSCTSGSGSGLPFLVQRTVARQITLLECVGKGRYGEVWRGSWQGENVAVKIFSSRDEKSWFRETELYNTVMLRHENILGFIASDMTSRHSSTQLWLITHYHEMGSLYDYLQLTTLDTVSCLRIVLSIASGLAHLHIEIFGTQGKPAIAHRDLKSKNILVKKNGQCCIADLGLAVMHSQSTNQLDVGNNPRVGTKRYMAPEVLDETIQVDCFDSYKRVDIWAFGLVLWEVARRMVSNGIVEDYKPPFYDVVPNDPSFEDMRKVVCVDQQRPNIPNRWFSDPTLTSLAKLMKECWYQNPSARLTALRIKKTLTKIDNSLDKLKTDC
# Sequence of UniProt P57059 (whole entry, looked up): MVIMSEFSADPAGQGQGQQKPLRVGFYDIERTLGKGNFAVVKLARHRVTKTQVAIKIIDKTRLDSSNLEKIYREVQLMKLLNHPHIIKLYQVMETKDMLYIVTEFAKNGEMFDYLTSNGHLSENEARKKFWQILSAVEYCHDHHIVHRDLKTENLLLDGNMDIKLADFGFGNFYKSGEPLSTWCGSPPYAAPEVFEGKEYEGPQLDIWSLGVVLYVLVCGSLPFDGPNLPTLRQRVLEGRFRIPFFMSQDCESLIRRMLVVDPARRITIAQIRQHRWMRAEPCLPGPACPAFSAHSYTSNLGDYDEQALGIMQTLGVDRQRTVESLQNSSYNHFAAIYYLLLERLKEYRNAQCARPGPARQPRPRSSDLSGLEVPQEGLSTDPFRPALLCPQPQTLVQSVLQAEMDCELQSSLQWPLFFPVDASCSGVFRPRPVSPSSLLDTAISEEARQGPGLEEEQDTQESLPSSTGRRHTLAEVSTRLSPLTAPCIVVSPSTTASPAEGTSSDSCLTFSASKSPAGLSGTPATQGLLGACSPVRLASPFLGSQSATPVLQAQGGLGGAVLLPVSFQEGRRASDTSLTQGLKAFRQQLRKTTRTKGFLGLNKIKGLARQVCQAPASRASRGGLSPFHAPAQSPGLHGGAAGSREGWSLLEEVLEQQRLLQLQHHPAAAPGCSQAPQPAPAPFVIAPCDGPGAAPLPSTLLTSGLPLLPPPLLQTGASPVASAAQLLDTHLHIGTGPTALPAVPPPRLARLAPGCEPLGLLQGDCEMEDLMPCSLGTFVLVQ
# Sequence of UniProt P07948 (whole entry, looked up): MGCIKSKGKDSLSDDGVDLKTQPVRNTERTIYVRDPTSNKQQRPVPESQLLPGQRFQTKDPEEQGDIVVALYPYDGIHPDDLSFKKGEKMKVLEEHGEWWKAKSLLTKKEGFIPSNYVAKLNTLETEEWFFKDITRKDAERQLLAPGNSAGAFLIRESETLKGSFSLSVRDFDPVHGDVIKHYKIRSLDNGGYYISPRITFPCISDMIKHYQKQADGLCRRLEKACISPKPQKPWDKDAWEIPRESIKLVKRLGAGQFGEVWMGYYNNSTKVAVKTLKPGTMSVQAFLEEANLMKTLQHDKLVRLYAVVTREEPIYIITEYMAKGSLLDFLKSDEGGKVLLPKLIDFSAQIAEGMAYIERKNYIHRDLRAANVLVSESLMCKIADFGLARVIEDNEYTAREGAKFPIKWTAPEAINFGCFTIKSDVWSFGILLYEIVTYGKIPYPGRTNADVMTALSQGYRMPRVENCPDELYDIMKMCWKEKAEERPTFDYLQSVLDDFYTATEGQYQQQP
# Sequence of UniProt Q96PN8 (whole entry, looked up): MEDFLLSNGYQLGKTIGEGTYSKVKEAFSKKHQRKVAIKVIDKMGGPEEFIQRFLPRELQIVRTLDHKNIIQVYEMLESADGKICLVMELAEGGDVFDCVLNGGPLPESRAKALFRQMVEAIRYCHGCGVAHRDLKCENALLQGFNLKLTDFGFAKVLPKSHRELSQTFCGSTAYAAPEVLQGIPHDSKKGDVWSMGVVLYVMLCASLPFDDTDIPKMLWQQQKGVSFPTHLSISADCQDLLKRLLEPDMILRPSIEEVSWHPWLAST

# Series 1
# SMILES: CC[C@@H](C)c1nc2cc(Nc3ccnc4ccc(S(=O)(=O)C(C)C)cc34)ccc2s1.Cl
# Method: CCK-8
cell line,tested at,together with,survival
L929 RIPK3-/- reexpressing RIPK3 K51A,12.5 µM,,112% and 98.5% and 90.5% and 86.5% and 95.9%
L929 RIPK3-/- reexpressing RIPK3 K51A/R69H,25 µM,zVAD,94.2% and 79.4% and 81.6% and 91.8%
L929 RIPK3-/- reexpressing RIPK3 K51A,50 µM,,61.9% and 57.9% and 51% and 28.3% and 58.4%

# Series 2
# Structure (SMILES): O=C1NC(=O)c2c1c1c3ccccc3n3c1c1c2c2ccccc2n1[C@H]1CC[C@@H]3O1
# Read-out: enzyme activity
# Mode: inhibitor
# Tested at: 0.5 µM
# Baseline: control
target,remaining activity [%]
"PIM2 (Homo sapiens, UniProt Q9P1W9)",1.86
"SGK1 (Homo sapiens, UniProt O00141)",23.8
"GSK3A (Homo sapiens, UniProt P49840)",2.19

# Series 3
# Target: CCNF, cyclin fold, Cln2 fusion (human)
# Method: yeast growth competition, sequencing
# Medium: yeast
# Setting: strong parent motif
# Baseline: not given
# Reading: higher = stronger binding
# Starting sequence: viral docking peptide; YKVKRRLVFGADD; partner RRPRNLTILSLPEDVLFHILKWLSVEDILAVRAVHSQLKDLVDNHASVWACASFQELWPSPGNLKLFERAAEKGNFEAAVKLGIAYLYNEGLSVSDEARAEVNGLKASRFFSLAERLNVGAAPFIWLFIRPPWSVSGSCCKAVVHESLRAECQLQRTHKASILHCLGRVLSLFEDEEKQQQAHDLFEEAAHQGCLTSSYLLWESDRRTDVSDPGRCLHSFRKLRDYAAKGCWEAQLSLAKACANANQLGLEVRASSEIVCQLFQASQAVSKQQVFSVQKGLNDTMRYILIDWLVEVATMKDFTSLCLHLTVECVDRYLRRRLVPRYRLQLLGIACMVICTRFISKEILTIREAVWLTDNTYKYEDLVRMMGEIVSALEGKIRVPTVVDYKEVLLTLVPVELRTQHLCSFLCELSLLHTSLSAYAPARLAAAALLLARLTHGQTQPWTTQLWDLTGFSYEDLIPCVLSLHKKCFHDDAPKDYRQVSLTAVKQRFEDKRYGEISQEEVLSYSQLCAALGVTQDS
Change,normalised enrichment score
V8L,9.1
A11L,8.86
L7A,0.422
F9A,0.706
G10V,7.83
K2N,8.51
G10M,8.45
R5S,1.62

# Series 4
# Structure (SMILES): Cn1cncc1[C@@](O)(COc1ccc(C#N)cc1-c1ccc(OC(F)(F)F)cc1)c1ccc(C#N)cc1
# Tested at: 1 µM
target,read-out,method,remaining binding [%]
"ACVR1 (Homo sapiens, UniProt Q04771)",cell-free assay,competition with immobilised ligand,100
"ROS1 (Homo sapiens, UniProt P08922)",cell-free assay,competition with immobilised ligand,96
"STK25 (Homo sapiens, UniProt O00506)",cell-free assay,competition with immobilised ligand,95
"RET (Homo sapiens, UniProt P07949, V804L)",cell-free assay,competition with immobilised ligand,89
"EGFR (Homo sapiens, UniProt P00533, A750P/del747-749)",cell-free assay,competition with immobilised ligand,100
"EIF2AK2 (Homo sapiens, UniProt P19525)",cell-free assay,competition with immobilised ligand,100
"MARK2 (Homo sapiens, UniProt Q7KZI7)",cell-free assay,competition with immobilised ligand,100
"CDK13 (Homo sapiens, UniProt Q14004)",cell-free assay,competition with immobilised ligand,87
"Tyrosine-protein kinase ABL1, phosphorylated (ABL1, Homo sapiens, UniProt P00519, T315I)",cell-free assay,competition with immobilised ligand,6.1
"RET (Homo sapiens, UniProt P07949)",cell-free assay,competition with immobilised ligand,100
"IRAK1 (Homo sapiens, UniProt P51617)",cell-free assay,competition with immobilised ligand,73
"PIM2 (Homo sapiens, UniProt Q9P1W9)",cell-free assay,competition with immobilised ligand,100
"SIK1 (Homo sapiens, UniProt P57059)",,competition binding,100
"NEK3 (Homo sapiens, UniProt P51956)",cell-free assay,competition with immobilised ligand,87
"MAPKAPK5 (Homo sapiens, UniProt Q8IW41)",cell-free assay,competition with immobilised ligand,100
"FGFR3 (Homo sapiens, UniProt P22607, G697C)",cell-free assay,competition with immobilised ligand,97
"GSK3B (Homo sapiens, UniProt P49841)",cell-free assay,competition with immobilised ligand,100
"ACVR2B (Homo sapiens, UniProt Q13705)",binding,competition with immobilised ligand,100
"TSSK3 (Homo sapiens, UniProt Q96PN8)",cell-free assay,competition with immobilised ligand,100
"WNK2 (Homo sapiens, UniProt Q9Y3S1)",cell-free assay,competition with immobilised ligand,84
"CASK (Homo sapiens, UniProt O14936)",cell-free assay,competition with immobilised ligand,92
"LYN (Homo sapiens, UniProt P07948)",cell-free assay,competition with immobilised ligand,100
"BMPR1B (Homo sapiens, UniProt O00238)",cell-free assay,competition with immobilised ligand,96
"MET (Homo sapiens, UniProt P08581, Y1235D)",cell-free assay,competition with immobilised ligand,100
"FLT3 (Homo sapiens, UniProt P36888, D835Y)",cell-free assay,competition with immobilised ligand,78

# Series 5
# Target: HLA class I histocompatibility antigen, C alpha chain, allele C*04:01 (Homo sapiens, UniProt P10321)
# Read-out: peptide-MHC binding
# Molecule type: peptide
# Tested at: concentration not given
Sequence,binding
YLRKHIRAL,inactive
MAWERGPAL,inactive
YRYCHQLAL,inactive
AEHDPWWAV,inactive
FLDKGTYTL,inactive
RMILPMSRAFR,inactive
GMMRWCMPV,inactive
SSDLRSWTF,inactive

# Series 6
# Target: Calcium/calmodulin-dependent protein kinase type II subunit alpha (CAMK2A, Homo sapiens, UniProt Q9UQM7)
# Sequence of UniProt Q9UQM7 (whole entry, looked up): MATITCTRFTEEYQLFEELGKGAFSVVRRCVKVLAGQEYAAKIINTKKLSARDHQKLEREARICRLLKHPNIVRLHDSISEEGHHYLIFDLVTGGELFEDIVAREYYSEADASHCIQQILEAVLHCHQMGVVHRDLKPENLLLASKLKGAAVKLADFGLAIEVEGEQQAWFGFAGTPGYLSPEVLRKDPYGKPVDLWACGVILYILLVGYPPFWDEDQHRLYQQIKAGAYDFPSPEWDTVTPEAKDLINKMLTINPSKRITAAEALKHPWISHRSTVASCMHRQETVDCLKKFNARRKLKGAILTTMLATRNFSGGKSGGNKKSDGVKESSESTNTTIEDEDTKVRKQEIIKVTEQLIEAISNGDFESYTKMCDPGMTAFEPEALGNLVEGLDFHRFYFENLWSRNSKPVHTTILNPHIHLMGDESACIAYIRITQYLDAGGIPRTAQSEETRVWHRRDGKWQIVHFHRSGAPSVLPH
# Read-out: enzyme activity
# Mode: inhibitor
# Tested at: 10 µM
Compound,inhibition [%]
Nc1nc(N)nc(N)n1,-16
COc1cccc(C=O)c1,29
CCCCOC(=O)c1ccccc1C(=O)O,7

# Single results of other studies
SMILES,tested on,assay,conditions,scale,endpoint,result
CCN(CC)CCOC(=O)C(O)(c1ccccc1)c1ccccc1.Cl,Sarcocystis neurona,parasite growth,"concentration not given, secondary screen",,inhibition,-10.1%
CC(=O)[C@H]1CC[C@H]2[C@@H]3CC[C@H]4C[C@H](O)CC[C@]4(C)[C@H]3CC[C@]12C,mouse MPNST tumor cells,"high-content immunofluorescence imaging, refers to: nuclear SOX9","10 µM, 12 h, mean of 2 replicates","baseline: DMSO control, higher = more nuclear SOX9",nuclear SOX9 intensity,92.4 % of DMSO
Cl.O.Oc1ccc2c3c1O[C@H]1c4[nH]c5ccccc5c4C[C@@]4(O)[C@@H](C2)N(CC2CC2)CC[C@]314,Sarcocystis neurona,parasite growth,"concentration not given, secondary screen",,inhibition,-20.7%

# Excerpt of the above (series 4):
target,read-out,method,remaining binding [%]
"NEK3 (Homo sapiens, UniProt P51956)",cell-free assay,competition with immobilised ligand,87
"MAPKAPK5 (Homo sapiens, UniProt Q8IW41)",cell-free assay,competition with immobilised ligand,100
"FGFR3 (Homo sapiens, UniProt P22607, G697C)",cell-free assay,competition with immobilised ligand,97
